Experimental data pooled from the literature.
Every numbered part comes from another study and shows a few of its results, in no order.

Block 1
Target: Max dimerization protein 1, bHLH-zipper, MAX partner unstated (MXD1, Homo sapiens, UniProt Q05195, residues 56-136)
Method: protein-binding microarray
Molecule type: double-stranded DNA, one strand shown
Matrix: in vitro
Concentration: not given
Setting: k-mer, scored over probes, only values ≥0.25
Direction: higher = stronger binding
Target sequence (chain): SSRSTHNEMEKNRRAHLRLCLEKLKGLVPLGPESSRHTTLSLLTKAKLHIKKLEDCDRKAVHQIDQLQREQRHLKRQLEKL
| Oligonucleotide | E-score |
| --- | --- |
| CGAGGGAA | 0.251 |
| ACGAGGCG | 0.365 |
| CATGCCCG | 0.366 |
| ACACGCAC | 0.336 |
| AAAATCAC | 0.265 |
| ACGCATGA | 0.329 |
| ACCCCGCC | 0.363 |
| CGTGGAGC | 0.364 |
| AACACGAG | 0.422 |
| CTACCCAC | 0.32 |
| CAACGTGG | 0.427 |
| CACGATGC | 0.27 |
| ACCCGCCA | 0.31 |
| ATGCTCAC | 0.271 |
| AGCCACGC | 0.355 |
| CGGGGCAC | 0.271 |
| ACCACCAC | 0.271 |
| CACGGGGA | 0.313 |
| ACGTGCGG | 0.405 |
| CGTGATAA | 0.279 |

Block 2
Target: Centromere-binding protein 1, full length, N-terminal tag (CBF1, Saccharomyces cerevisiae, UniProt P17106, residues 1-351)
Sequence of UniProt P17106 (whole entry, looked up): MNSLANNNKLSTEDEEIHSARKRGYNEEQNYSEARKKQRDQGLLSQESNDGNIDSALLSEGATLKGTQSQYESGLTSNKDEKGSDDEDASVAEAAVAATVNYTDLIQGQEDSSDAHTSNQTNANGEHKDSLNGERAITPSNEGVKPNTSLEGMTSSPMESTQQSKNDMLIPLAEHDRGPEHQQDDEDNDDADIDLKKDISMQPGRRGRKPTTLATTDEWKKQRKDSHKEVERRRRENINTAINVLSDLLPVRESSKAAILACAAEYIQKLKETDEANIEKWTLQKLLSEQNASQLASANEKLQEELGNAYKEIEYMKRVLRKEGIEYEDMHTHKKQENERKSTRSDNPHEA
Method: protein-binding microarray
Molecule type: double-stranded DNA, one strand shown
Matrix: in vitro
Concentration: 0.8 µM
Setting: whole 60-bp probe, no competitor
Direction: higher = stronger binding
All sequences stand within: … GTCTTGATTCGCTTGACGCTGCTG
| Oligonucleotide | fluorescence intensity [a.u.] |
| --- | --- |
| GAAAATGGAACACTCCTCACCACGAGGTTCTAATAG | 688 |
| TGTACGAAGCTATCCCACGTTGTTATAGTAGTTAGG | 548 |
| CTATCGCGTTCGTCACACATGATTATTTATACATTC | 861 |
| CTAGAGCCCTCCCCCCACGAAGGTTTTTTCCTTTTC | 471 |
| CTAAAGAAACGAATTCACCTGATTGCAGCTGCATTC | 605 |
| CTAACGCCAAAGTTCCACGTTCAAATAAAACTTTTC | 538 |
| CTAGGTTCCTATTTACACGCGGCGTTTATATTTTTC | 524 |
| CTATTTTTCATTCACGTGTGCAGCCACGTGCGGTTC | 16100 |
| CTAAAGAGAGCTAGCTACAGAAATATAAACAGTTTC | 485 |
| CTATCTCAATATAGGGAGGTGATCGGGACCAGCTTC | 536 |
| CTAAATAATGGAACTGACGTCGTCAATTACCGGTTC | 480 |
| GAAATCATCAAACGGCACGCGCAGGGATGAAGGTAG | 732 |
| GAAGAAAGGAGACGTCACGTCACTTAGGCAAGATAG | 765 |
| GAAAATGTAATTTCTCACGTGTTCCTTTAGCAGTAG | 5050 |
| CTAAGGAACAACCATCACCCCACACTTTTATCTTTC | 551 |
| GAAAAAAAATAAAGCATCAGAATCAATTTCTTGTAG | 515 |
| GAAATGTAAAAATGTCTCCTGTGACTTTCATTATAG | 567 |

Block 3
Target: Histone acetyltransferase KAT6A, winged helix 2, GST fusion (KAT6A, Homo sapiens, UniProt Q92794, residues 85-181)
Method: protein binding microarray
Molecule type: double-stranded DNA, one strand shown
Matrix: in vitro
Concentration: not given
Setting: 8-mer, flanks averaged, mean of 2 arrays, mostly near background
Baseline: not given
Direction: higher = stronger binding
Target sequence (chain): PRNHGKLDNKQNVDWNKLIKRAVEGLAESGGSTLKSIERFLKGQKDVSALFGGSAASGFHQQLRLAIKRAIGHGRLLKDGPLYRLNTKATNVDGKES
| Oligonucleotide | E-score |
| --- | --- |
| GCTCCAGA | 0.157 |
| CCTTATCG | -0.0276 |
| CCAGTCGA | -0.0304 |
| CGGTTAAA | 0.155 |
| ATGTGTTC | 0.0427 |
| AGGTCCAG | 0.157 |
| AGAGTGCG | 0.0712 |
| CCACAATC | 0.0723 |
| TCCGGTCA | -0.047 |
| CTGACCAG | 0.124 |
| CTTACAAC | 0.0134 |
| AAGTTCCA | -0.136 |
| ATCCCGTG | -0.0553 |
| GTCCACCA | -0.0166 |
| GAGCACTA | -0.00216 |
| CCTCATGA | 0.0213 |
| CCTTAACA | -0.16 |
| AATCGTGT | -0.0559 |
| ATAACCAG | -0.0242 |
| ATCGGCAT | 0.158 |
| TTACTGAA | 0.127 |
| AAAAAGTG | -0.0402 |
| GTAACGCA | 0.076 |
| AGATGTTG | -0.218 |
| CTACTTTA | -0.164 |

Block 4
Target: Prothrombin, mature alpha-thrombin (F2, Homo sapiens, UniProt P00734)
Method: aptamer microarray, sandwich
Molecule type: DNA with 2'F-ANA
Matrix: in vitro
Concentration: 200 nM
Setting: whole 15-mer aptamer, many near background
With: Cy3 exosite-II aptamer, 400 nM
Direction: higher = stronger binding
Oligonucleotide: GGTTGGTGTGGTTGG
| Modification | mean fluorescence intensity |
| --- | --- |
| 2'F-ANA at 1 4 5 9 11 12 14 | 99.4 a.u. |
| 2'F-ANA at 1 5 7 8 9 10 11 14 15 | 49.1 a.u. |
| 2'F-ANA at 1 2 6 8 9 11 15 | 135 a.u. |
| 2'F-ANA at 1 2 7 8 9 13 14 15 | 63.9 a.u. |
| 2'F-ANA at 1 2 4 5 6 8 9 11 13 14 15 | 50.7 a.u. |
| 2'F-ANA at 2 7 8 10 11 13 14 | 86.9 a.u. |
| 2'F-ANA at 1 2 3 7 10 11 13 | 62.5 a.u. |
| 2'F-ANA at 1 2 8 9 11 12 15 | 285 a.u. |
| 2'F-ANA at 2 4 7 8 9 10 12 14 | 67.1 a.u. |
| 2'F-ANA at 1 2 4 5 6 10 12 | 60.5 a.u. |
| 2'F-ANA at 2 3 6 7 10 | 376 a.u. |
| 2'F-ANA at 1 2 3 4 6 8 12 13 15 | 265 a.u. |
| 2'F-ANA at 1 2 3 5 9 14 15 | 48.2 a.u. |
| 2'F-ANA at 2 3 4 5 9 11 14 | 84.7 a.u. |
| 2'F-ANA at 2 3 4 5 6 9 10 12 13 15 | 128 a.u. |
| 2'F-ANA at 1 2 3 4 5 8 9 11 | 58.9 a.u. |
| 2'F-ANA at 1 2 7 9 11 14 | 52.4 a.u. |
| 2'F-ANA at 1 3 7 8 9 10 11 13 14 | 76.4 a.u. |
| 2'F-ANA at 1 5 6 7 11 12 13 14 | 46 a.u. |
| 2'F-ANA at 1 4 7 8 9 11 14 | 51 a.u. |
| 2'F-ANA at 1 9 11 12 14 15 | 62.7 a.u. |

Block 5
Target: Interferon regulatory factor 7, full length, phosphomimetic (IRF7, Homo sapiens, UniProt Q92985, residues 1-503, S101K/S471D/S472D/S475D/S476D/S477D/S483D/S484D/S487D)
Method: protein-binding microarray
Molecule type: double-stranded DNA, one strand shown
Matrix: in vitro
Concentration: 250 nM
Setting: 60-bp whole probe
With: salmon DNA 0.4 mg/ml
Baseline: random background probes
Direction: higher = stronger binding
All sequences stand within: GCCTAGCAC … GTCTTGATTCGCTTGACGCTGCTG
Residues (chain): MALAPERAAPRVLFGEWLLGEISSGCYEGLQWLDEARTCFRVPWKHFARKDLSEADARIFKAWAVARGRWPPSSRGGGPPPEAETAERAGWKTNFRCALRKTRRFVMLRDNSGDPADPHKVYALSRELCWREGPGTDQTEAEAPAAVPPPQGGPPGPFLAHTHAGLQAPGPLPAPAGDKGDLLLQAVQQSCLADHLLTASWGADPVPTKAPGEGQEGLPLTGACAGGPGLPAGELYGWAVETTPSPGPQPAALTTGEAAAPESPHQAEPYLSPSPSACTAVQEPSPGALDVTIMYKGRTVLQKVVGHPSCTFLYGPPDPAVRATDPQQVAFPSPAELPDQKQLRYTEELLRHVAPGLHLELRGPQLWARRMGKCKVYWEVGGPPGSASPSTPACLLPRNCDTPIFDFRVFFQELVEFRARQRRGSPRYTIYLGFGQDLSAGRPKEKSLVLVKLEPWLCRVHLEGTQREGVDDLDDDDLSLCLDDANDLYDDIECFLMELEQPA
| Oligonucleotide | log fluorescence |
| --- | --- |
| TTAGGTCGCGGTATCGGTTAGTGCTAG | 1.52 z-score |
| TCAAGTTTTCCTCTGTCACTGTGCTAG | 1.47 z-score |
| TCAATTCTCTTCTTGCAACTGTGCTAG | 1.28 z-score |
| GACGGACTGCTTATCCTGGCGTGCTAG | -0.518 z-score |
| GACGGACTGCCTATCCTGACGTGCTAG | -0.569 z-score |
| GACGGTTTCTTTCTCCTGACGTGCTAG | 2.55 z-score |
| ATGCTTTACTCACTCGGAAAGTGCTAG | 0.694 z-score |
| TAAGGACTGGACACTGGGTTAGTGCTA | -0.4 z-score |
| GACGATATCAGTATCGAGTCGTGCTAG | 0.75 z-score |
| TTAGGTTTCGGGTACCGGTTAGTGCTA | 6.34 z-score |
| GACGGTTTCGGCACTGGGGACGTGCTA | 1.65 z-score |
| TTCGGTCTCCTTATCCTTTAGTGCTAG | 0.746 z-score |
| TTAGATTACAGTCTCGATTAGTGCTAG | 1.51 z-score |
| TCAAGGTTTTCTCTGGTACTGTGCTAG | 0.21 z-score |
| TCACCTTTTCTTTACTGACTGTGCTAG | 1.26 z-score |
| GACGAACTGGGCTATCGAGACGTGCTA | -0.65 z-score |
| GACGGACTGGCTATCGGGACGTGCTAG | -0.628 z-score |
| GACGGTATCGGTCGCGGGACGTGCTAG | 0.00315 z-score |
| TTAGATCTGGGGACTGGATTAGTGCTA | -0.0814 z-score |
| GGAGAAAAATCATGAAAATAGTGCTAG | -0.425 z-score |
| TCTGTTTCTGATATGGTATGGTGCTAG | 2.25 z-score |
| TTAGATTTCCTTTCCCTTTAGTGCTAG | 2.11 z-score |
| TCACTTCTCTAACCTCTCACTGTGCTA | 1.12 z-score |
| GACGGTTTCCTTCTGCTGACGTGCTAG | 3.09 z-score |
| GACGATCTTAGTATCGAGACGTGCTAG | 0.162 z-score |

Block 6
Target: RNA binding protein fox-1 homolog 2, RRM domain, GST-SBP tag (RBFOX2, Homo sapiens, UniProt O43251-10, residues 100-194)
Method: RNA Bind-n-Seq
Molecule type: RNA
Matrix: in vitro
Concentration: 365 nM
Setting: natural RNA segment, single round, ends assumed
Baseline: no-protein control
Direction: higher = stronger binding
All sequences stand within: GGGAGUUCUACAGUCCGACGAUC … UGGAAUUCUCGGGUGCCAA
| Oligonucleotide | RBNS enrichment (R) |
| --- | --- |
| UUUCUUUUCUCCAGUCCUCACAAAUACAGAAACAAUAACUGAAAUUAACUUUUCUUUUUUUAAAAAAAAUUAUAUUCAGUUUGCAGUAGACAUUCCUUAAGUAUUUGUAU | 0.777 |
| AUUUUUUGAUACCAACACUGAACAUUCAUCAGGGAACUUUCCUGAAGUUCAGCUCAAGACUACCCUACCUGCUGUGUUUGUGAGAAGAGUAGGAUCACACACACAGGUGC | 0.4 |
| CCCUGGGAAUUUCUAUCCAUUUUAAAUGCUGCCGCUUUCAUCUGUUUAGCCAGCACACCCAAUGGUUUCACUAACUAGCCCAGUUGACCUUUUUGAAGUUUGAGCCUUGA | 0.475 |
| CUGGGGGACUGGGGGGCCAUUUCCUUUUCUCUGCCCUUUUUUUGUUGUUCUAUUUUGUACAGACAAGUUGGAAAAACAACAGCGACAAAAAAGUCAAGAAACUUUGUAAA | 0.51 |
| GGGCUCAAGCCCCCCGGGACCGCAAAGACCCCUAGCAGCAUGUCCCAGCCUGGAGCCACACCUUCUGAGGCCCCAGCCCAGACUCAUGACGCGGAGGGCAGACAGGCCGC | 2.05 |
| UGCUUUGCUUAGCCACUACUGGAUUUGUUUGGCUGGCCACUGGGUGGCAGCAUAGGUUCUAAUUUUCUUUUGAAGAGAAAUUGUGGGAAGGGUAAACUUUUGAGAUUUUU | 1.61 |
| UUCCCUUUAGCACGUUUAAAGUUCUGUGUAUUUAAUUGUAAACUGUACUAGUCUGUGUGGGACUGUACACACUUUAUUUACUUCGUUUUGGUUAAGUUGGCUUCUGUUUC | 8.14 |
| GUCUCCACCAUUGUGGAUGGAGGGGGUCUCUGUGCUAGGAGACUCUAUAGACUGCCUCCAGCCGCCCUCCAGUGCUGUGGAGAGACUGUCCCCAGCCUGAGGGACUCUCC | 0.378 |
| UACCUAGCCAGUUGUUUCUGAGGACCAGGCAACUUUUGAACUCCUGUCUCUGUGAGAAUGUAUACUUUAUGCUCUCUGAAAUGUAUGACACCCAGCUUUAAAACAAACAA | 0.841 |
| UGCUGGGUUUUCUGUUGUUUGAGUGUGUUAGAGAAAUUUGAAUGUUUUUGUCAGUUACGAGUCAGCCGUAAUUAGAUUAGUUUAAGGACAGGUCAGGAUUAGAGAAGAGU | 6.26 |
| UAAGUUAGAAUUUUACCUCAUAAAAUUUUUUGAGGUUUGAUGUAUGUCUCUGUCUUAUCAAUAAUGAGGCUUAAAAAAUACUGGAUUUGAAUGGCUGCCGUUUUUUCAAA | 0.363 |
| CUACUCUGCCACAGACUCGAGUAAGAAAAUGUUCUCUUGAUGACACAGUGCUCCUACUCUAUCCACAUUAAGUAGCACUUUUGUGGUAGAACUGAUUCUUAAGGCAGGCC | 0.487 |
